Measured values of several laboratories.
Parts stem from different laboratories: compare values within a part only. Positions count from the first letter of the parent shown.

Series 1
Molecule: PhoQ, residues 284 288 289 292 302 303 ALSMDL
Method: Sort-seq
Refers to: YFP reporter
Sample: E. coli
Notes: PhoQ-PhoP variant library
With: 10 µM Mg2+
Baseline: high Mg2+ state
Direction: higher = stronger signaling
Endpoint: fold induction
PhoP, residues 12 14 15 18 19 HHYTI (Escherichia coli, UniProt P23836): 17.2
PhoP, residues 12 14 15 18 19 AYFRS (Escherichia coli, UniProt P23836): 22
PhoP, residues 12 14 15 18 19 SFCSL (Escherichia coli, UniProt P23836): 6.71

Series 2
Target: ABI1, truncated, D143A, DHFR fusion (Arabidopsis thaliana)
Method: DHFR PCA, deep sequencing
Sample: yeast
Notes: methotrexate growth selection, single substitutions
With: (+)-ABA 0.39 µM
Baseline: wild-type fitted maximum
Direction: higher = stronger binding
Endpoint: relative binding score
Starting sequence: PYL1, truncated, DHFR fusion (Arabidopsis thaliana); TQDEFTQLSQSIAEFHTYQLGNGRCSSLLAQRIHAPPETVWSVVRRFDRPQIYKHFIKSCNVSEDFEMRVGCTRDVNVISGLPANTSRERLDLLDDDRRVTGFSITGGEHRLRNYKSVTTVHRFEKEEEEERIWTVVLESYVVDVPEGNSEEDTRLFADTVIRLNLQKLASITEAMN; partner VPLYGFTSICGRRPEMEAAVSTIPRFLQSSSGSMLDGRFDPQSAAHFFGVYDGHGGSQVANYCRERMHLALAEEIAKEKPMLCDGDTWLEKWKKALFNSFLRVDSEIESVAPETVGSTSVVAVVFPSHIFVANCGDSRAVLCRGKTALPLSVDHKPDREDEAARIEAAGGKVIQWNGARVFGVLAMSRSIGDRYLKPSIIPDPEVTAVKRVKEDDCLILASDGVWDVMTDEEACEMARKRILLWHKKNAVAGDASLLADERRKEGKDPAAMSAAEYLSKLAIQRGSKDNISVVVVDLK
L138E: -5.98%
V118W: -7.78%
I172D: -16.2%
I79D: 6.38%
E38P: 5.58%
R98G: -1.85%
E14K: 21.8%
A158Q: 13.9%
V62S: -0.967%
Q19H: 44.5%
S11G: 8.02%
E151Q: 28.7%
M176G: 31.9%

Series 3
Target: Sal-like protein 4, full length isoform B (SALL4, Homo sapiens, UniProt Q9UJQ4-2, residues 1-616)
Method: universal PBM
Form: double-stranded DNA, one strand shown
Sample: in vitro
Tested at: not given
Notes: 8-mer, flanks averaged, mean of replicates
Direction: higher = stronger binding
Endpoint: E-score
ACTTGGAA: 0.0116
CACCGGGG: -0.403
TCACTCCA: -0.0614
CCATGGTA: -0.0687
ATGCGTCC: -0.216
ACTGATCT: 0.0148
AGCAGAGG: -0.154
AGGCCGGG: -0.266
CCGGTAAC: -0.174
AGCACGTC: -0.119
AAACTCCT: -0.101
AATCCCGA: 0.0189
CGTTTCGA: -0.122
ATAAGCTG: 0.14
ATACGGCG: -0.0149
ACTAGAAT: 0.238
CCTGTGAG: -0.0814
AGGATGAC: -0.0147
CGCAACGC: -0.213
ACCTTCCA: -0.0181

Series 4
Target: CCNB2, cyclin fold, Cln2 fusion (human)
Method: yeast growth competition, sequencing
Sample: yeast
Notes: strong parent motif
Baseline: not given
Direction: higher = stronger binding
Endpoint: normalised enrichment score
Starting sequence: E2F1 docking peptide (human); PPVKRRLDFETDH
PPVKRRLDFRTDH [E10R]: 2.13
PPVKRDLDFETDH [R6D]: 0.286
PPVKRRLDFWTDH [E10W]: 2.47
PPCKRRLDFETDH [V3C]: 2.83
PSVKRRLDFETDH [P2S]: 3.47
PPVKRRLDPETDH [F9P]: -0.145
PPVKRRLGFETDH [D8G]: 0.897
PPVKRRLDFKTDH [E10K]: 1.73
PPVHRRLDFETDH [K4H]: 1.31
PPVKRRLDFEHDH [T11H]: 4.03
PPVKRRLDEETDH [F9E]: 0.61
PPVERRLDFETDH [K4E]: 1.18
PPEKRRLDFETDH [V3E]: 1.52
PPVKRFLDFETDH [R6F]: 1.53
PEVKRRLDFETDH [P2E]: 3.71
PPVKRRLDFEQDH [T11Q]: 3.94
PPVKRRLDFHTDH [E10H]: 2.65
PPVKRRPDFETDH [L7P]: 0.0692
PPVKRRLDFEPDH [T11P]: 3.48
PPVKSRLDFETDH [R5S]: 0.325
PPVKVRLDFETDH [R5V]: 1.88
PPVKRYLDFETDH [R6Y]: 2.32
PPVKRRLDFFTDH [E10F]: 2.46
PPVKRRLHFETDH [D8H]: 2.48
PPVKRRIDFETDH [L7I]: 2.65

A few entries again (series 2):
V118W: -7.78%
I172D: -16.2%
I79D: 6.38%
E38P: 5.58%
R98G: -1.85%
